Measured values collected from several papers.
Parts stem from different laboratories: compare values within a part only. Substitutions count along the parent as printed.

Study 1 — technique: RNA Bind-n-Seq; molecule type: RNA; medium: in vitro; tested at: 200 nM; notes: whole 134-nt RNA, ends assumed; with: 150 mM LiCl; relative to: input library; direction: higher = stronger binding; library: 7-deaza-guanosine replaces G
Target: Fragile X messenger ribonucleoprotein 1, C-terminal low-complexity region (Fmr1, Mus musculus, UniProt P35922)
Strand	log2 enrichment
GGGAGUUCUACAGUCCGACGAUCCUGUGCUACACAUCGUAUGUACCGAAUCGGAAAAAAAGGGGAAAAAAAGGGGAAAAAAAGGAAAGUAUUAUGUUACGCCGUUCGGAUCUGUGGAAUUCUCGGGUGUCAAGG	-0.0218
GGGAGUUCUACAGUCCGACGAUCCAAGUCCUGUGCUACACAUCGUAUGUACCGAAUCGGGUGGGUGGGAAAAAAAGGGAAAGUAUUAUGUUACGCCGUUCGGAUCUGCACUUCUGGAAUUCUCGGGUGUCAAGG	-0.28
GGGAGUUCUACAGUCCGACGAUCACCAUGCAGGUGGGCAUCUUUGGGAAGUGGGGCAAGGGGGGGAUAGGGAGGGGGGUAACACUUGGGGAACAGGUGGUCCCAGGUCGUUUCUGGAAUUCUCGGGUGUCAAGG	1.61
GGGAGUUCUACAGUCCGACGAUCUCCUCAAGUCCUGUGCUACACAUCGUAUGUACCGAAUCGGAGGGAGGGAGGAAAGUAUUAUGUUACGCCGUUCGGAUCUGCACUUCCAGCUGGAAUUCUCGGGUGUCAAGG	-1.67
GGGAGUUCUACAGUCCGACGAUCUCUGGACAUGCAGGUGGACCAGUCAGUGCCAGAGUAAGUUGUUGUUUUCUUAAAAGAAAAAAAAAAAUGUAAAAUCAUCUAACCCUAACCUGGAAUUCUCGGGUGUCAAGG	-0.619
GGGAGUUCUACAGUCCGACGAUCUGUGGGUCCUCCUGCACCUGGUGCUGGCCUUCCUGUCCCUGCGCUCUUUGACAGCCUCCUGACCUGUAGGACGAGGGAUUCCUUGUUCUUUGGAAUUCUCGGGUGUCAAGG	0.953
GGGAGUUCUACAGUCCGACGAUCGAAAUACCAUCGGAAGACGAUGGGACGGUGCUGCUCUCCACGGUUACAGCCCAGUUUCCAGGGGCGUGUGGGCUUCGCUACAGGAAUCCAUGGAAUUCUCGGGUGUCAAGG	-0.359
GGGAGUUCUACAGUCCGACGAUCUGCAGCUGCUGGCCGCCUCCUAUGACCUGCACCGCUACUUCUACACGGGUGCCGAGAUCCUGGGCCUCAUCGACGAGAAGCACCGCGAGCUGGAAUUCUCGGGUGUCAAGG	1.08

Study 2 — target: CCND2, cyclin fold, Cln2 fusion (human); technique: yeast growth competition, sequencing; medium: yeast; notes: weak parent motif; relative to: not given; direction: higher = stronger binding
Starting sequence: CDKN1B docking peptide (human); PSACRNLFGPVDH
Change	normalised enrichment score
PSACRNLFGGVDH [P10G]	0.287
PSACRNLFCPVDH [G9C]	0.249
PSACRNSFGPVDH [L7S]	0.114
PSACRNLFVPVDH [G9V]	0.0382
PSACRNLFGPVDE [H13E]	0.0729
PSAGRNLFGPVDH [C4G]	-0.00991
PSACRNLFGPVDA [H13A]	0.349
PSACRNLFGQVDH [P10Q]	0.139
PSACRNLFGPDDH [V11D]	0.0527

Study 3 — technique: DHFR PCA, deep sequencing; medium: yeast; with: (+)-ABA 2500 µM; relative to: wild-type fitted maximum; direction: higher = stronger binding
Target: ABI1, truncated, D143A, DHFR fusion (Arabidopsis thaliana)
Notes: methotrexate growth selection, single substitutions
Starting sequence: PYL1, truncated, DHFR fusion (Arabidopsis thaliana); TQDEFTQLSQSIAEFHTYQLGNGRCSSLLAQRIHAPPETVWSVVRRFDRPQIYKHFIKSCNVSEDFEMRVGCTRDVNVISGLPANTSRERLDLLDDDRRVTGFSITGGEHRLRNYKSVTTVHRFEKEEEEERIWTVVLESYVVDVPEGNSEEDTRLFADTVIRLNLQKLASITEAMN; partner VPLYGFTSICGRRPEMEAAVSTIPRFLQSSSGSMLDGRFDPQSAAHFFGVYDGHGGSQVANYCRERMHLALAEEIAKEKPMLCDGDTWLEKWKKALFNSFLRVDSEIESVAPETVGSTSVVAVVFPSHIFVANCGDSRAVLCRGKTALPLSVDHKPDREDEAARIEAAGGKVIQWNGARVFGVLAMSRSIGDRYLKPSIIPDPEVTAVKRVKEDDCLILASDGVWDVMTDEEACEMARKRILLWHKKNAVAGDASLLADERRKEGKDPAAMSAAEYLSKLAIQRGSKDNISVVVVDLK
Change	relative binding score [%]
T135S	106
F5T	105
T120Y	43
D92K	52.5
C72Q	94.8
V118I	98.8
E14L	91.8
R132C	101
E89M	6.44
N114M	80.7
A84I	22.9
W134L	106
T154K	7.73
R45E	50.9
H110K	40.2
I57N	53.6

Other studies, line by line
Molecule	target	test	system	conditions	scale	quantity	result
PhoQ, residues 284 288 289 292 302 303 TTSMTC	PhoP, residues 12 14 15 18 19 VHSCL (Escherichia coli, UniProt P23836)	Sort-seq, refers to: YFP reporter	E. coli	PhoQ-PhoP variant library, with: 10 µM Mg2+	relative to: high Mg2+ state, higher = stronger signaling	fold induction	10.8
